{"data": "Results pooled from the literature", "icl": "Isocitrate lyase (icl, Mycobacterium tuberculosis, UniProt P9WKK7)", "uncharacterized protein": "uncharacterized protein (Aptenodytes forsteri, UniProt A0A087QWN2)", "Slc6a2": "Transporter (Slc6a2, Rattus norvegicus, UniProt Q63380)", "aac": "Aminoglycoside 2'-N-acetyltransferase (aac, Mycobacterium tuberculosis, UniProt P9WQG9)", "OPRK1": "Kappa-type opioid receptor (OPRK1, Homo sapiens, UniProt P41145)", "note": "Several values in a cell are separate wells, animals, samples, runs or records. Numbers after ± are the reported error."}
{"Structure (SMILES)": "c1ccc2cc([C@]34CNC[C@H]3C4)ccc2c1", "target": "SLC6A3 (Homo sapiens, UniProt Q01959, F326A)", "test": "inhibitor, [3H]dopamine uptake", "conditions": "100 µM, F326A mutant", "how to read": "relative to: no inhibitor", "quantity": "dopamine uptake", "value": "-3.6% and 1.49% and -0.309%"}
{"Structure (SMILES)": "COC(=O)[C@@H](NC(=O)c1nn(Cc2ccc(F)cc2)c2ccccc12)C(C)(C)C", "target": "CNR1 (Homo sapiens, UniProt P21554)", "test": "GTPase", "how to read": "relative to: compound", "quantity": "Gi GTP turnover minimum", "value": "98%"}
{"Structure (SMILES)": "O=C(O)C1=CC=C(COc2ccc3ccc(=O)oc3c2)C1", "target": "icl", "test": "thermal shift, SYPRO Orange", "conditions": "1 mM, pH 7.5, 1 mM MgCl2, protein 20 µM", "quantity": "delta Tm", "value": "> 0.5 °C"}
{"Structure (SMILES)": "C[C@]12CC[C@H]3[C@@H](CCC4=CC(=O)CC[C@@]43CO)[C@@H]1CCC2=O", "target": "uncharacterized protein", "conditions": "Aptenodytes forsteri", "quantity": "kon", "value": "5.5e+07 ± 1.6e+14 M⁻¹ s⁻¹"}
{"Structure (SMILES)": "CCCC(NC)C(=O)c1ccc2c(c1)OCO2 (racemic)", "target": "Slc6a2", "test": "substrate release, releaser", "test system": "rat brain synaptosomes", "conditions": "together with: [3H]MPP+ 9 nM", "quantity": "EC50", "value": "inactive"}
{"Structure (SMILES)": "Clc1ccc(COc2cccc(CNCc3cccnc3)c2)cc1", "target": "aac", "test": "neomycin acetylation, inhibitor", "conditions": "together with: neomycin", "quantity": "highest concentration without inhibition", "value": "> 200 µM"}
{"Structure (SMILES)": "CN[C@]1(c2ccccc2Cl)CCCCC1=O", "target": "OPRK1", "test": "radioligand binding, agonist, radioligand displacement", "conditions": "30 µM", "quantity": "inhibition", "value": "57%"}
{"Structure (SMILES)": "O=C(N/N=C/c1cc2c(s1)CCCC2)c1cccs1", "target": "1-deoxy-D-xylulose-5-phosphate synthase (Mycobacterium tuberculosis, UniProt P9WNS3)", "test": "inhibitor", "conditions": "concentration not given", "quantity": "remaining activity", "value": "30%"}
{"Structure (SMILES)": "NC(CC(=O)O)c1cccnc1 (centres unmarked)", "target": "icl", "test": "thermal shift, SYPRO Orange", "conditions": "1 mM, pH 7.5, 1 mM MgCl2, protein 20 µM", "quantity": "delta Tm", "value": "> 0.5 °C"}
{"Structure (SMILES)": "Cl.NC(=O)c1ccc(C(=O)N[C@H]2CC[C@@]3(O)[C@H]4Cc5ccc(O)c6c5[C@@]3(CCN4CC3CC3)[C@H]2O6)s1", "target": "OPRK1", "test": "radioligand binding", "test system": "CHO membranes", "how to read": "relative to: Ki µ over Ki κ", "quantity": "selectivity ratio", "value": 13.6}
{"Structure (SMILES)": "CCNC(CC)C(=O)c1ccc2c(c1)OCO2 (centres unmarked)", "target": "Slc6a2", "test": "substrate release, releaser", "test system": "rat brain synaptosomes", "conditions": "together with: [3H]MPP+ 9 nM", "quantity": "EC50", "value": "inactive"}
{"Structure (SMILES)": "COc1ccc(O)c(C(=O)CC(=O)c2ccccc2)c1", "target": "icl", "test": "thermal shift, SYPRO Orange", "conditions": "1 mM, pH 7.5, 1 mM MgCl2, protein 20 µM", "quantity": "delta Tm", "value": "> 0.5 °C"}
{"Structure (SMILES)": "O=P(O)(O)O[C@H]1O[C@H](CO)[C@H](O)[C@H](O)[C@H]1O", "target": "lacto-N-biose phosphorylase", "test": "substrate", "quantity": "Km", "value": "680 ± 160 µM"}
{"Structure (SMILES)": "C/C=C1/CN2CC[C@]34C(=C(C(=O)OC)[C@H]1C[C@H]23)Nc1ccc(I)cc14", "target": "OPRK1", "test": "[3H]diprenorphine competition binding", "test system": "CHO cell membranes", "how to read": "relative to: Ki MOR over Ki KOR", "quantity": "selectivity ratio", "value": 164}
{"Structure (SMILES)": "Clc1ccc(COc2ccccc2CNCc2cccnc2)cc1", "target": "aac", "test": "neomycin acetylation, inhibitor", "conditions": "together with: neomycin", "quantity": "highest concentration without inhibition", "value": "> 200 µM"}
{"Structure (SMILES)": "CCOC(=O)c1ccc(CC(=O)c2oc3cc(O)ccc3c2C)o1", "target": "icl", "test": "thermal shift, SYPRO Orange", "conditions": "1 mM, pH 7.5, 1 mM MgCl2, protein 20 µM", "quantity": "delta Tm", "value": "> 0.5 °C"}
{"Structure (SMILES)": "CCCCCCCC[C@H]1O[C@H]1C/C=C/C=C/[C@H](O)CC(=O)NC1=C[C@](C)(CC)OC1=O", "target": "Na(+)-translocating NADH-quinone reductase subunit B, whole Na+-NQR complex (nqrB, Vibrio cholerae serotype O1, UniProt Q9KPS2)", "test": "ITC", "conditions": "concentration not given, 20 °C, wild type", "quantity": "binding stoichiometry", "value": "0.57 ± 0.01"}
{"Structure (SMILES)": "C[C@]12C=CC3=C4CCC(=O)C=C4CC[C@H]3[C@@H]1CC[C@@H]2O", "target": "WD repeat-containing protein 55 (WDR55, Homo sapiens, UniProt Q9H6Y2)", "test": "binding, affinity selection mass spectrometry", "conditions": "100 nM, pooled screen", "how to read": "relative to: other proteins", "quantity": "fold change", "value": 60.3}
{"Structure (SMILES)": "O=C(COc1ccccc1Br)c1ccc(O)cc1O", "target": "icl", "test": "thermal shift, SYPRO Orange", "conditions": "1 mM, pH 7.5, 1 mM MgCl2, protein 20 µM", "quantity": "delta Tm", "value": "> 0.5 °C"}
{"Structure (SMILES)": "Clc1ccc(COc2ccccc2CNCc2ccncc2)cc1", "target": "aac", "test": "neomycin acetylation, inhibitor", "conditions": "together with: neomycin", "quantity": "highest concentration without inhibition", "value": "> 200 µM"}
{"Structure (SMILES)": "COc1ccsc1CNCC[C@@]1(c2ccccn2)CCOC2(CCCC2)C1", "target": "Oprm1 (Mus musculus, UniProt P42866)", "test": "GIRK current, perforated patch clamp", "test system": "AtT20 cells", "conditions": "80% receptor knockdown, unit not given", "how to read": "relative to: somatostatin response", "quantity": "Emax", "value": "0.33 ± 0.01"}
{"Structure (SMILES)": "Cc1ccc(C(=O)CC(=O)c2ccco2)c(O)c1", "target": "icl", "test": "thermal shift, SYPRO Orange", "conditions": "1 mM, pH 7.5, 1 mM MgCl2, protein 20 µM", "quantity": "delta Tm", "value": "> 0.5 °C"}
{"Structure (SMILES)": "C[C@]12CCC(=O)C=C1CC[C@@H]1[C@@H]2CC[C@]2(C)C(=O)CC[C@@H]12", "target": "uncharacterized protein", "conditions": "Aptenodytes forsteri", "quantity": "kon", "value": "3.5e+07 ± 9e+13 M⁻¹ s⁻¹"}
{"Structure (SMILES)": "Cl.O=C(N[C@H]1CC[C@@]2(O)[C@H]3Cc4ccc(O)c5c4[C@@]2(CCN3CC2CC2)[C@H]1O5)c1ccc(Cl)s1", "target": "OPRK1", "test": "radioligand binding", "test system": "CHO membranes", "how to read": "relative to: Ki µ over Ki κ", "quantity": "selectivity ratio", "value": 5.39}
{"Structure (SMILES)": "Brc1ccc2c(c1)C(c1ccccn1)=NCc1c(-c3cnco3)ncn1-2", "target": "GABA-A receptor benzodiazepine site, rat", "test": "radioligand binding", "test system": "brain homogenate", "conditions": "10 µM, together with: [3H]flunitrazepam", "quantity": "inhibition", "value": "93.4%"}
{"Structure (SMILES)": "CC(=O)Nc1ccc(C(=O)N[C@H]2CC[C@@]3(O)[C@H]4Cc5ccc(O)c6c5[C@@]3(CCN4CC3CC3)[C@H]2O6)s1.Cl", "target": "OPRK1", "test": "radioligand binding", "test system": "CHO membranes", "how to read": "relative to: Ki µ over Ki κ", "quantity": "selectivity ratio", "value": 9.54}
{"Structure (SMILES)": "Oc1ccc2c3c1O[C@H]1[C@@H](O)CC[C@@]4(O)[C@@H](C2)N(CC2CCC2)CC[C@]314", "target": "SUCNR1 (Homo sapiens, UniProt Q9BXA5)", "test": "β-arrestin recruitment, TANGO luminescence", "conditions": "concentration not given", "how to read": "relative to: basal luminescence", "quantity": "log2 fold change", "value": 0.316}
{"Structure (SMILES)": "Cl.O=C(N[C@H]1CC[C@@]2(O)[C@H]3Cc4ccc(O)c5c4[C@@]2(CCN3CC2CC2)[C@H]1O5)c1ccc([N+](=O)[O-])s1", "target": "OPRK1", "test": "radioligand binding", "test system": "CHO membranes", "how to read": "relative to: Ki µ over Ki κ", "quantity": "selectivity ratio", "value": 2.11}
{"Structure (SMILES)": "C#CCOc1ccc(C=C2C(=O)NC(=O)NC2=O)cc1Br", "target": "UCHL1 (Homo sapiens, UniProt P09936)", "test": "covalent, intact protein LC-MS", "conditions": "12.5 µM", "quantity": "labelling", "value": "28.1%"}
{"note": "Repeated from above:"}
{"Structure (SMILES)": "C#CCOc1ccc(C=C2C(=O)NC(=O)NC2=O)cc1Br", "target": "UCHL1 (Homo sapiens, UniProt P09936)", "test": "covalent, intact protein LC-MS", "conditions": "12.5 µM", "quantity": "labelling", "value": "28.1%"}
{"Structure (SMILES)": "C/C=C1/CN2CC[C@]34C(=C(C(=O)OC)[C@H]1C[C@H]23)Nc1ccc(I)cc14", "target": "OPRK1", "test": "[3H]diprenorphine competition binding", "test system": "CHO cell membranes", "how to read": "relative to: Ki MOR over Ki KOR", "quantity": "selectivity ratio", "value": 164}
